# Measurements from different studies.
# Every numbered part comes from another study and shows a few of its results, in no order. Substitutions count along the parent as printed.

# Block 1 — method: RNA Bind-n-Seq; form: RNA; medium: in vitro; tested at: 365 nM; baseline: no-protein control; reading: higher = stronger binding
# Target: RNA binding protein fox-1 homolog 2, RRM domain, GST-SBP tag (RBFOX2, Homo sapiens, UniProt O43251-10, residues 100-194)
# Setting: natural RNA segment, single round, ends assumed
# Shared flanks, not repeated: GGGAGUUCUACAGUCCGACGAUC … UGGAAUUCUCGGGUGCCAA
# Target sequence (chain): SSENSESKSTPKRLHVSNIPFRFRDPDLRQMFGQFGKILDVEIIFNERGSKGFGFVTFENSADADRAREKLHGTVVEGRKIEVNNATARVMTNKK
Sequence,RBNS enrichment (R)
CUUCCAUGACCUUGGAGGUAUAUCCCAAGCUCUCAUUGGCAGAUGAGGCAAGAGAUAAGGGCAGGAUAUAGCACAUGAUGGCUUCCAGCAGAACUGAGUCUAUAGCCCAG,0.478
AUUUUUAGUCAAAAGUGCUUGGAAUAAUGGAAUGGUUAGCAUUCUUUGAAAGAGUAUCUAAAAAGUUUAUAAAUAUUUGAACUAUCACACAAAGGUUGAUCUCUAAAAAA,0.536
UCCGCUGCCUCCAAGCCGGACUUAGGGCUUCAAGAGGCGGGCGUGCCCUCUGGAGUCCCCUACCAUGACUGAAGGCGCCAGAGACUGGCGGUGUCUUAAGACUCCGGGCA,7.14
GGUUAUGCAGCUUAAGUUCAGUCUUCUUUAUGCUGCGAUUGAUUUCCACCUCAGUGGCUUAGCCUUUGGGACAGUGGAUACUGCAACAGCCAAGAACUCUUGGUUAUCCG,0.226
UUUGAUGACCCUCAUCCAAGUCUAUGACACUUUCCUAUGGUUUUCUGUAUUCUAUGUCUGGAUGGAGCUGUUAAAAGAUGAACAAAUUGGUGGAUAUUUGGGGAAAGCAA,0.846
UAGACUGUUGAAUACUGUUACUUUUAUAUAGAACCCAAGGAAUGCCUUCCUGUCAUAUUUUAGCCAAAACAACUGGUUAUAUGCCUCCCUUGCAGCAAGCACUACAAUGU,0.651
GUGGAAAGCAAGCCGAGGUGUAAACUGCUGUACAUAGCUUGAAGAAAUACAAAUGAAGUCACGUUUCCUGAGCAGUUUUUCUGAGUCUCAAACUAGGAACAAAUUCUGAG,0.399
UGUUAAGUACUCAGGCAUGACUACGCUAUCAGCUACGAAACAUGUUAACUCUCACUAGGAAUAGCUUUGGCUUAAGAGUCCAGCAGGGGCAACUUCCUGAGAUGAAUGAA,2.21
UGGAAGAAAAUAACCUUAUUGUUUUCUUAAAGCUAAACAGAAUAGGAUUGGUACUCAUUAAUUAUGUCUUGCAAAUAUUUUCUAAAAAUUCAACCACUCUCCUAAAAUGG,1.16
GGGCACUUAAAAGUUCUGUUAUUUUUGUUUGGUUUUGUUAUUUCAGUCCUCAGUUAAGGCAAGAAUGCAUGUGUUUCUUAAGAAUGAGUACUCUGCGUUGAUGUUUAUGA,28
AAAAAUCUGCAAGGUACCAGAUGGAGGAUUCGGGGUCAAGGUGAUGUGGCUGGCAUAGCCUGUGCUCUCCCCCAGCACCUUAUUUAGACAGCCCCCCAACAGUAGUAGGC,0.371
ACGCUCUGCUGGUCAGUGGCGGCUGUCCCCUCCCCAGCCCAGCCGCCCAGCCACAUGUGUCUGCCUGACCCGUACACACCAGGGGUUCCGGGGUUGGGAGCUGAACCAUC,0.404

# Block 2 — method: universal PBM; form: double-stranded DNA, one strand shown; medium: in vitro; tested at: not given; reading: higher = stronger binding
# Target: Sal-like protein 4, full length isoform B (SALL4, Homo sapiens, UniProt Q9UJQ4-2, residues 1-616)
# Setting: 8-mer, flanks averaged, mean of replicates
# Target sequence (chain): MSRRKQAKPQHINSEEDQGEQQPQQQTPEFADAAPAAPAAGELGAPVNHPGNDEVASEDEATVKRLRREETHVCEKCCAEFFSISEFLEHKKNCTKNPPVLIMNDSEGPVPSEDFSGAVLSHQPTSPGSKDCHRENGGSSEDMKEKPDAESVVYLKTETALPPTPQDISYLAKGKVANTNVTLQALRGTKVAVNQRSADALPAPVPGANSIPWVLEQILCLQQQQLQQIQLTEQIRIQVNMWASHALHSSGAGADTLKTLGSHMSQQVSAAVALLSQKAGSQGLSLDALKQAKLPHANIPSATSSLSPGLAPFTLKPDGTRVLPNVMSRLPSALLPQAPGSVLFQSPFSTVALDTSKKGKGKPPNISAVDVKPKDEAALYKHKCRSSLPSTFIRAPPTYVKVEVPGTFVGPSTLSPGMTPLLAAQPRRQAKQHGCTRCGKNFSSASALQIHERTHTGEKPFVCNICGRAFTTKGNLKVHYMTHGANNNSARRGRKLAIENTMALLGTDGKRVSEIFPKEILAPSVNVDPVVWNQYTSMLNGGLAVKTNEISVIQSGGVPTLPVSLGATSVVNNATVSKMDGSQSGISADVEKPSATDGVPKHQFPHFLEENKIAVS
Sequence,E-score
AATGACCA,0.0558
TACTGAAA,0.286
ATTAGGCC,0.00079
AGTTGACA,0.126
CTGTTTGA,0.0763
ACCTATGA,0.0785
ATCACTAC,0.141
CACTAAAA,0.0464
CGACTTCA,-0.121
ACCCTCGC,-0.221
CATGAACA,0.15
CAAAGAGC,-0.176
AGTCAACC,-0.17
CAGGAAGA,-0.166
ACAACGCT,0.0824
AACACTCA,-0.0213
GGGCGGAA,-0.186
GGCAGTAC,0.00146
CGGGAGAC,-0.205
AGTGTTGC,-0.0203
AACAACAT,0.147
GTAACTAC,0.108
GAGTTGCC,-0.217
AATTAGAC,0.242
CGCATTCC,-0.269

# Block 3 — method: DHFR PCA, deep sequencing; medium: yeast; added: (+)-ABA 200 µM; baseline: wild-type fitted maximum; reading: higher = stronger binding
# Target: ABI1, truncated, D143A, DHFR fusion (Arabidopsis thaliana)
# Setting: methotrexate growth selection, single substitutions
# Parent: PYL1, truncated, DHFR fusion (Arabidopsis thaliana); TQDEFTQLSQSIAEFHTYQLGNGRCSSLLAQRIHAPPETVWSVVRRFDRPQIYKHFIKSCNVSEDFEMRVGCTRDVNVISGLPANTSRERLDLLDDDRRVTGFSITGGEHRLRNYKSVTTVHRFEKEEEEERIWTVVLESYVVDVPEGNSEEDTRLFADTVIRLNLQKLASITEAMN; partner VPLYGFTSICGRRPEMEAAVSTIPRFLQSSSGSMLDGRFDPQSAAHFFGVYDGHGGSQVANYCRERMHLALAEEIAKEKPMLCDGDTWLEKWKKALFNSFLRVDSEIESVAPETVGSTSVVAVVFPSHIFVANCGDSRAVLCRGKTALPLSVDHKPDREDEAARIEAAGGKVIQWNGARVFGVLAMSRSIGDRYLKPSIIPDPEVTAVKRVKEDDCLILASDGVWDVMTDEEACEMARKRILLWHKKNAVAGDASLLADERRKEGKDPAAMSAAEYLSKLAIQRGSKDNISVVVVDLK
Substitution,relative binding score [%]
R69Q,98.2
I52S,98.9
G21N,99.7
V43F,92
G108A,34.6
E130R,108
R113F,88.5
D3A,96.6
T6E,102
V137Q,4.88
L166R,2.4
T6P,105
R49W,51.1
E89A,-5.63
H34W,83.7
E174I,72.3
D96A,50.6
Q167Y,77.6
N85I,101

# Block 4 — method: protein binding microarray; form: double-stranded DNA, one strand shown; medium: in vitro; tested at: not given; baseline: not given; reading: higher = stronger binding
# Target: Histone acetyltransferase KAT6A, winged helix 1, GST fusion (KAT6A, Homo sapiens, UniProt Q92794, residues 1-85)
# Setting: 8-mer, flanks averaged, mean of 2 arrays, mostly near background
# Residues (chain): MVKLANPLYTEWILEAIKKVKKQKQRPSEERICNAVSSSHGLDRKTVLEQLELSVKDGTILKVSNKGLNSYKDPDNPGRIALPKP
Sequence,E-score
CCCCGTAG,0.247
AAATCATA,-0.0478
AAAGGATG,-0.169
CTCATCTA,-0.233
CTGGAGCA,-0.145
AAGACTCG,0.0193
CGGTGAGA,0.00536
ACACAAAC,-0.126
ATTGGTTA,-0.246
CCATACCC,-0.00432
ATTATTAG,-0.0106
CCACCATA,-0.123
ACCGGGAA,0.252
CACCTCCC,-0.0436
GTACTCAC,-0.111
GCTAGAAC,0.0513
GAACCAAC,-0.25
GGTGTGAC,0.0234
AACCGATA,0.0862
ACATTGAA,-0.107
ACTAGTCT,-0.235
ACAACCCC,0.034

# Block 5 — method: protein-binding microarray; form: double-stranded DNA, one strand shown; medium: in vitro; tested at: not given; reading: higher = stronger binding
# Target: Protein max, full length (MAX, Homo sapiens, UniProt P61244-2, residues 1-151)
# Setting: k-mer, scored over probes, only values ≥0.25
Sequence,E-score
ACGCCGCA,0.314
ACGCTGTA,0.256
ACACGAGG,0.475
ACCACGGG,0.342
ACAACGTG,0.464
CCGTACAC,0.32
CCATGCGA,0.395
AGCATGCC,0.41
ACGAGGTG,0.282
ACGCGCGC,0.287
CGTGCAAC,0.387
ACATGTAA,0.268
TCGTGACA,0.296
TCGCCACA,0.265
CATGCTCA,0.38
CCATGGCA,0.284
ACATGGGG,0.403
CACCTGGG,0.312
CATGCAAG,0.278
ATCACGCC,0.327
CATGCTAA,0.329
GCATCACA,0.255
CCCGCCAC,0.275
CATCACGC,0.375
CAATCACG,0.36

# Block 6 — target: CREB3L2, bZIP domain (human); method: DHFR protein complementation; medium: yeast; baseline: wild-type JUN-FOS pair; reading: higher = stronger binding
# Setting: single substitutions, most at no-binding floor
# Parent: JUN, bZIP domain (human); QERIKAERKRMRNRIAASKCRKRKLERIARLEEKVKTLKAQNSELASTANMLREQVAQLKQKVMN; partner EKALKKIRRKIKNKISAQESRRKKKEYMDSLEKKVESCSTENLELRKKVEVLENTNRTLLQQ
Substitution,binding fitness
E54G,-1.49 natural log
E54D,-1.38 natural log
A49L,-1.38 natural log
L38V,-1.56 natural log
M51D,-0.972 natural log
A46R,-1.31 natural log
L31W,-1.54 natural log
N42S,-1.51 natural log
T37I,-1.53 natural log
A46T,-1.41 natural log
S47E,-1.41 natural log
K34Q,-1.39 natural log
V35H,-1.55 natural log

# Block 7 — target: CCNE2, cyclin fold, Cln2 fusion (human); method: yeast growth competition, sequencing; medium: yeast; setting: strong parent motif; baseline: not given; reading: higher = stronger binding
# Parent: GMNC docking peptide (human); KNAKRNLSSEFAN; partner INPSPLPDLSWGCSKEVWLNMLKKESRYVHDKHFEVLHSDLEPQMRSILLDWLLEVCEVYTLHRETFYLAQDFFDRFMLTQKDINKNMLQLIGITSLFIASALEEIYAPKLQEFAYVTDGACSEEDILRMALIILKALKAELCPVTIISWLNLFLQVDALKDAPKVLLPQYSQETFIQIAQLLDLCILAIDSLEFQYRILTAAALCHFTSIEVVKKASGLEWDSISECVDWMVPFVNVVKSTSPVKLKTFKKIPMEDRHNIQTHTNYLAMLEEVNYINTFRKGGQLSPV
Substitution,normalised enrichment score
KNAKRNLSSEFIN [A12I],1.52
KNAKRNLSIEFAN [S9I],1.78
KNAKRNLSSYFAN [E10Y],0.672
KNAKRNLSNEFAN [S9N],1.44
KPAKRNLSSEFAN [N2P],1.28
KNAKRNLSSPFAN [E10P],0.0239
KNAKRNLSSHFAN [E10H],0.83
KNAKPNLSSEFAN [R5P],-0.167
KNAKRNLSSIFAN [E10I],1.02
KNAKRNLASEFAN [S8A],1.7
KNASRNLSSEFAN [K4S],0.369
KNAKRNLSQEFAN [S9Q],1.72
KHAKRNLSSEFAN [N2H],1.41
KNAKRNLSSCFAN [E10C],1.27

# Further values, each from its own experiment
Substance,partner,test,system,setting,endpoint,result
"SUCLG1 (Homo sapiens, UniProt P53597)","SUCLG2 (Homo sapiens, UniProt Q96I99)",cross-linking MS,cell fractions,added: DSSO,cross-linked residues,K308 to K132

# Repeated from above (block 4):
Sequence,E-score
ATTGGTTA,-0.246
ACAACCCC,0.034
GCTAGAAC,0.0513
AAAGGATG,-0.169
CTGGAGCA,-0.145
CACCTCCC,-0.0436
GAACCAAC,-0.25
CGGTGAGA,0.00536
ACACAAAC,-0.126
ATTATTAG,-0.0106
AACCGATA,0.0862
ACTAGTCT,-0.235
CCCCGTAG,0.247
AAGACTCG,0.0193
ACCGGGAA,0.252
AAATCATA,-0.0478
CTCATCTA,-0.233
GGTGTGAC,0.0234
ACATTGAA,-0.107
GTACTCAC,-0.111
